Experimental data from different studies.
Compare with care: the assays were run in different laboratories. ± gives the spread as reported.
UniProt Q13464, sequence (whole entry, looked up): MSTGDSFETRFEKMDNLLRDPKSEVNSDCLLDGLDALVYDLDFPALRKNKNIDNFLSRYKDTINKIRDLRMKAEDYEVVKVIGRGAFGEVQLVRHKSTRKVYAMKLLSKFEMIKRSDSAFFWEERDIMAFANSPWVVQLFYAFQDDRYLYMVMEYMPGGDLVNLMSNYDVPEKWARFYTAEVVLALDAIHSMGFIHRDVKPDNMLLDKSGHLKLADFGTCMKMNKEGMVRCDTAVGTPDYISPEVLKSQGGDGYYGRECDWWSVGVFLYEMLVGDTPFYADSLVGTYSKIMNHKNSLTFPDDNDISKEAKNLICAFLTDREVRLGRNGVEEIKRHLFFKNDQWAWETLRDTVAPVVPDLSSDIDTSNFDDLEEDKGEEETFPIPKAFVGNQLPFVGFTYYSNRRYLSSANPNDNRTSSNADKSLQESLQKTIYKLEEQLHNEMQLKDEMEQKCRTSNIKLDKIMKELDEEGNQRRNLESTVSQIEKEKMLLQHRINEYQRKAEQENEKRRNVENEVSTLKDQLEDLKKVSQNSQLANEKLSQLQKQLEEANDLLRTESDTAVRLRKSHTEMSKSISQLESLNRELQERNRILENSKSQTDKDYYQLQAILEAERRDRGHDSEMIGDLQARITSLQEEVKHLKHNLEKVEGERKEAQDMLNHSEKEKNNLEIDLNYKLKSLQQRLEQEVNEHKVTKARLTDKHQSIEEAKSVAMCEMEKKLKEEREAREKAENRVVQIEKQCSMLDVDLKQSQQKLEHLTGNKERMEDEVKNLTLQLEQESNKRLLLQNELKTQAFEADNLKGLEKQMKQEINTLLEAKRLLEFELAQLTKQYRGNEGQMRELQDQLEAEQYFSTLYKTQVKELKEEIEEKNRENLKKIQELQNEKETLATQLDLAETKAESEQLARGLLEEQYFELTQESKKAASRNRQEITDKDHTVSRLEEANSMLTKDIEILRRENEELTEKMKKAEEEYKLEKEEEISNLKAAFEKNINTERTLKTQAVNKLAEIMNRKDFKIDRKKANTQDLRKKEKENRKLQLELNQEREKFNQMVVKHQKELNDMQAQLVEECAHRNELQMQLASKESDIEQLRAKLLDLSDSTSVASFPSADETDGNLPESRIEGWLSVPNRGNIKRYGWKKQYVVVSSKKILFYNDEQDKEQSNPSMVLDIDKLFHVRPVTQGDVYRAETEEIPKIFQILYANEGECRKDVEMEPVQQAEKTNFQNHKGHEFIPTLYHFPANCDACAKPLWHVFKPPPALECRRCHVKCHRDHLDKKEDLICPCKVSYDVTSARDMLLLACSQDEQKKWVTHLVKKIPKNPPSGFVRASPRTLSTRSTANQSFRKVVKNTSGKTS
UniProt Q14164, sequence (whole entry, looked up): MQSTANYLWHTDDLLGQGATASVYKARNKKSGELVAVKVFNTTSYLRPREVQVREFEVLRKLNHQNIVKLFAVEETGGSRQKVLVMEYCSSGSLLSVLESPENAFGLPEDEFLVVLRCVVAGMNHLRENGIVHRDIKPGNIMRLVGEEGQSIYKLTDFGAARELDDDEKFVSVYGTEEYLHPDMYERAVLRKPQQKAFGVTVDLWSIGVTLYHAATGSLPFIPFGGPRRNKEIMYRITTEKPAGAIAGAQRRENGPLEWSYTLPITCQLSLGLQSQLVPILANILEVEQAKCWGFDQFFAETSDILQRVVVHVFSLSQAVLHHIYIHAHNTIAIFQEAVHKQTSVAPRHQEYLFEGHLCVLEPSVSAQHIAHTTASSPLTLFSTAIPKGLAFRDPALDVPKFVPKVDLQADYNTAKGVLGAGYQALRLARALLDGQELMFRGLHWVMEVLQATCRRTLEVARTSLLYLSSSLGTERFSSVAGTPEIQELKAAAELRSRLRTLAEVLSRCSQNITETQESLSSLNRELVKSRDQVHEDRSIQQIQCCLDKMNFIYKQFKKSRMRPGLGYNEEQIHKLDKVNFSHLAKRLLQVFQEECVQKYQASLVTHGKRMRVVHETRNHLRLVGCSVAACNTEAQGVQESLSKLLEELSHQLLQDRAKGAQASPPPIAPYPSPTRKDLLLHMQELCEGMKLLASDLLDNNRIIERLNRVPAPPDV
UniProt Q15303, sequence (whole entry, looked up): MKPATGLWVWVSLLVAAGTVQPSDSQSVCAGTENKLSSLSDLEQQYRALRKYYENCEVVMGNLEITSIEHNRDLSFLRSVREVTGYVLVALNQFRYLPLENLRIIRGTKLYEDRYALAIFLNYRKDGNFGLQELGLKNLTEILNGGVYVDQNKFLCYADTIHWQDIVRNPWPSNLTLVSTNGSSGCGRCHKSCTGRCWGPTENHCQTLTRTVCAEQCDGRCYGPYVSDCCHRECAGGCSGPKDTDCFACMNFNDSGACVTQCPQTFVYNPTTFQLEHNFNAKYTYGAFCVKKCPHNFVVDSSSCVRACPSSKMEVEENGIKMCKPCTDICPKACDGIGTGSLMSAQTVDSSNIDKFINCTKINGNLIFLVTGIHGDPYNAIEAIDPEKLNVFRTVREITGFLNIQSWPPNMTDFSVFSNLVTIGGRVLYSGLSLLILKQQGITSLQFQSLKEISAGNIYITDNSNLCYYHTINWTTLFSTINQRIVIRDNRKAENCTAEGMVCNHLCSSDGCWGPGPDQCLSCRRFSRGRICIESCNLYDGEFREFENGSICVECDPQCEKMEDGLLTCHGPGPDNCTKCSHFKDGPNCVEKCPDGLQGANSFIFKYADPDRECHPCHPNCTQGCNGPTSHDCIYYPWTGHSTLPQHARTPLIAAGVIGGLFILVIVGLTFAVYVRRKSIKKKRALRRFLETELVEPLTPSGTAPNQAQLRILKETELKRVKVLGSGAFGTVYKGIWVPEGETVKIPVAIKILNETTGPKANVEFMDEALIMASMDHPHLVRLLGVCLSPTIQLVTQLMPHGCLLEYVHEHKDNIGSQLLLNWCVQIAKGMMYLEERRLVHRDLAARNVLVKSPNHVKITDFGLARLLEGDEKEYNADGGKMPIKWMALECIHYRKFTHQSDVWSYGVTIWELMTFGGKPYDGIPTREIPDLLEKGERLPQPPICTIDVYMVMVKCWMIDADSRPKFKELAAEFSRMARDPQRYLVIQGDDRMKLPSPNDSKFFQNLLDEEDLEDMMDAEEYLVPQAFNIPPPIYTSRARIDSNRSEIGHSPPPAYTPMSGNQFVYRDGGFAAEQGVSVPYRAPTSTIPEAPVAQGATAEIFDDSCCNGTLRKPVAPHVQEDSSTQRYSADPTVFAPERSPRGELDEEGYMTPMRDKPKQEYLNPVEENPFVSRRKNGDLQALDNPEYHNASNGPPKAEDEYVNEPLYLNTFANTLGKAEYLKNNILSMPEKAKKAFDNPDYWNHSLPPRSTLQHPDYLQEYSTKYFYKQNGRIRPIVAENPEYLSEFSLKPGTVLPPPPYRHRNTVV

SMILES | tested on | test | test system | setting | how to read | endpoint | value
O=S(=O)(N[C@H]1CCO[C@@H](C2c3ccc(F)cc3CCc3cc(F)ccc32)C1)c1ccc(OC(F)(F)F)cc1 | – | H&E staining | D341-Luc, athymic nude mouse, intraventricular leptomeningeal disease model, spinal column | dose not given | baseline: vehicle | metastasis area | decreased
CN(C)[C@H]1C[C@@]23CC[C@@]4(O2)C(=CC[C@]2(C)[C@@H](c5ccc6ccncc6c5)CC[C@H]24)C=C3[C@@H](O)[C@@H]1O | Inhibitor of nuclear factor kappa-B kinase subunit epsilon (IKBKE, Homo sapiens, UniProt Q14164) | ATP probe labelling, inhibitor, KiNativ profiling | – | 0.1 µM | – | inhibition | -8.4%
COc1ccccc1-c1n[nH]c2nc(N[C@H]3CC[C@H](NS(=O)(=O)CC(C)C)CC3)ncc12 | – | bead binding, competition bead pull-down, item: LINJ.34.4360 | Leishmania donovani extract | 10 µM | baseline: vehicle | relative abundance | 0.82
CCN(Cc1ccccc1)C(=O)CCc1nc(CN2CCN(C(=O)Cc3ccc(OC)c(OC)c3)CC2)no1 | – | current clamp | DRG neurons, naive rat | 10 µM | – | action potential threshold | -4.56 ± 1.88 mV
CS(C)(=O)=Nc1ccc(-c2ccc(-c3nc4cc(O[C@@H]5CO[C@H]6[C@@H]5OC[C@H]6O)[nH]c4cc3F)cc2)cc1 | Rho-associated protein kinase 1 (ROCK1, Homo sapiens, UniProt Q13464) | enzyme activity, inhibitor | – | 10 µM | – | inhibition | -23%
CO[C@H]1CC=C2CCN3CCC4=C(CC(=O)CC4)[C@]23C1 | – | – | Wistar rats, intermittent ethanol access | subcutaneous, 10 mg/kg, 30 min after drinking onset | – | ethanol intake | 1.1 ± 0.1 g/kg
c1c[nH]c(CNCc2cc(CNCc3ccc[nH]3)cc(-c3cc(CNCc4ccc[nH]4)cc(Cn4cc(COCCOCCOCCOCCOCc5cn(Cc6cc(CNCc7ccc[nH]7)cc(-c7cc(CNCc8ccc[nH]8)cc(CNCc8ccc[nH]8)c7)c6)nn5)nn4)c3)c2)c1 | – | – | hACE2 mice, bronchoalveolar lavage fluid | dose not given | baseline: control | IFN-gamma level | decreased
[Cu+2].c1cnc2c(c1)c1nccnc1c1cccnc12.c1cnc2c(c1)c1nccnc1c1cccnc12 | – | DNA cleavage | supercoiled pUC19 DNA | 100 µM, 4 h, 37 °C, no reducing agent, with: DNA 40 µM | – | nicked circular DNA form | 98%
CC(C)[C@H]1NC(=O)C[C@H]2/C=C/CCSSC[C@@H](NC1=O)C(=O)N[C@H](Cc1cccc3ccccc13)C(=O)NCC(=O)O2 | Receptor tyrosine-protein kinase erbB-4 (ERBB4, Homo sapiens, UniProt Q15303) | enzyme activity, inhibitor | – | 10 µM | – | inhibition | 3.4%
O=C1NC2(CC2)COc2ncc(F)cc2[C@H]2COCCN2c2ccn3ncc1c3n2 | – | – | Sprague-Dawley rat, male, serum | oral, 20 mg/kg/day, end of treatment, 4-week subacute toxicity | – | serum LDH activity | 880 ± 310 U/L
C[C@H](NCc1ccc(-c2ccc(C(F)(F)F)cc2)cc1)C(N)=O | – | passive avoidance, acquisition | APP/PS1 mice | oral, 1 mg/kg, 336 h, 2 weeks dosing | – | step-through latency | 29.9 ± 4.77 s
CC(C)C[C@@H]1NC(=O)[C@@H](Cc2c[nH]c3ccccc23)NC(=O)[C@H](CCCNC(=N)N)NC(=O)[C@@H](CCC(=O)O)NC(=O)[C@H](CCC(N)=O)NC(=O)[C@@H](CCC(=O)O)NC(=O)[C@H](CCCNC(=N)N)NC(=O)[C@@H](Cc2c[nH]c3ccccc23)NC1=O | – | Luminex, item: VEGF | LDLr-/- mice, Western diet, liver | dose not given, 4 weeks | – | cytokine level | 8.2 ± 3.4 pg/g tissue
COc1ccccc1-c1n[nH]c2nc(NC3CCN(C(=O)Cc4ccc(F)cc4F)CC3)ncc12 | – | bead binding, competition bead pull-down, item: LINJ.31.3250 | Leishmania donovani extract | 10 µM | baseline: vehicle | relative abundance | 1.02
CC(C)(C)C(=O)OCOP(=O)(OCOC(=O)C(C)(C)C)C1CCCN(O)C1=O (stereo not shown) | RPMI-8226 | – | – | – | – | TGI | 1120 nM
N#CCc1ccc(O)cc1 | – | DPPH radical | – | 300 µg/mL | – | radical scavenging | 8.2 ± 1.2%
NNC(=O)c1ccccc1 | – | hydrazine ligation kinetics, absorbance | – | concentration not given, 25 s, with: 2-formylphenylboronic acid | – | normalised absorbance | 0.656

Excerpt of the above:
SMILES | tested on | test | test system | setting | how to read | endpoint | value
CC(C)[C@H]1NC(=O)C[C@H]2/C=C/CCSSC[C@@H](NC1=O)C(=O)N[C@H](Cc1cccc3ccccc13)C(=O)NCC(=O)O2 | Receptor tyrosine-protein kinase erbB-4 (ERBB4, Homo sapiens, UniProt Q15303) | enzyme activity, inhibitor | – | 10 µM | – | inhibition | 3.4%
O=C1NC2(CC2)COc2ncc(F)cc2[C@H]2COCCN2c2ccn3ncc1c3n2 | – | – | Sprague-Dawley rat, male, serum | oral, 20 mg/kg/day, end of treatment, 4-week subacute toxicity | – | serum LDH activity | 880 ± 310 U/L
